Measured values gathered from unrelated publications.
Each numbered part is a random draw from the data of one study; scales do not carry over between parts. pEC50: −log10 of the molar value.

Protein sequences, listed by entry. Tags and fused reporters are not part of them.
UniProt Q08345, whole entry, looked up: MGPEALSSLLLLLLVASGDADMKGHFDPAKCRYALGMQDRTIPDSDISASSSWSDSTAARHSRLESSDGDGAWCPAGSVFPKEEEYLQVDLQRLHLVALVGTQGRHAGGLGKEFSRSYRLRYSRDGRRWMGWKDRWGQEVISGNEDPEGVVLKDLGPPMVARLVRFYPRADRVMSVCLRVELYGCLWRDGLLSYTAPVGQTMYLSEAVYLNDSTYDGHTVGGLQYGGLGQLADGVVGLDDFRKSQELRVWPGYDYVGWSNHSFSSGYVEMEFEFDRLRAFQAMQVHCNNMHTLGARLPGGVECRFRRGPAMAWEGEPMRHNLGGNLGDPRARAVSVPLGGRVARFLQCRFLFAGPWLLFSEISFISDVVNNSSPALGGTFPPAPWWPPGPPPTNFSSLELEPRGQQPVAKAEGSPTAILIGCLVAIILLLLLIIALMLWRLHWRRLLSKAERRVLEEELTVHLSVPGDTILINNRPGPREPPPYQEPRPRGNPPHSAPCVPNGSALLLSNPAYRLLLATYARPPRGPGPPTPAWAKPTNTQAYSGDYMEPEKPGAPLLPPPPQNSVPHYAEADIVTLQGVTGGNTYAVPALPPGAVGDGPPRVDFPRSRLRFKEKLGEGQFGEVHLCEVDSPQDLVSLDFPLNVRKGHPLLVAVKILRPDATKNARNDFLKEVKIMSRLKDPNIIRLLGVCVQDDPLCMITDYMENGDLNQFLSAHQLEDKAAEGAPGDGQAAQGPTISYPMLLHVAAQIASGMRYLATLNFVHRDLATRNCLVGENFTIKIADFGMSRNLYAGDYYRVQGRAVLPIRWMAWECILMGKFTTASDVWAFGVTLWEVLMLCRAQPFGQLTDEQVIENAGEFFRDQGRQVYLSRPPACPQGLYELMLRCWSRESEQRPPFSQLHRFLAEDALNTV
UniProt P51813, whole entry: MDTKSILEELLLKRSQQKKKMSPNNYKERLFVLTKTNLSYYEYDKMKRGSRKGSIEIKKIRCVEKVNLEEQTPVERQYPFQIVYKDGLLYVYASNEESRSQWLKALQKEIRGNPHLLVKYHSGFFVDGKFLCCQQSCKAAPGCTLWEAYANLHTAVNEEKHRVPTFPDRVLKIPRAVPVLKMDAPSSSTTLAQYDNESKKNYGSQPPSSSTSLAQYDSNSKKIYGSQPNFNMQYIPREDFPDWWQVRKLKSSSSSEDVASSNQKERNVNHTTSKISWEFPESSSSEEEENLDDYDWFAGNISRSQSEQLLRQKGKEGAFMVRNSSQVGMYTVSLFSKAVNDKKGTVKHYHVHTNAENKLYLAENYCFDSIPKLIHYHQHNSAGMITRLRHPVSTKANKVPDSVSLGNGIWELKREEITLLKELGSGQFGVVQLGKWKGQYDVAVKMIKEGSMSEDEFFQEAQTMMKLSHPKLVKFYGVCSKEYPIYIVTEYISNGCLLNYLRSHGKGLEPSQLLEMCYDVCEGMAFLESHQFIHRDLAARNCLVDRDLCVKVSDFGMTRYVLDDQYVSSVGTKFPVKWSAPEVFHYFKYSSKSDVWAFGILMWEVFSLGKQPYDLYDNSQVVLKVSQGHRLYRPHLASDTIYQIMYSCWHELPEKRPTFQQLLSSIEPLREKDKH
UniProt Q16832, whole entry, looked up: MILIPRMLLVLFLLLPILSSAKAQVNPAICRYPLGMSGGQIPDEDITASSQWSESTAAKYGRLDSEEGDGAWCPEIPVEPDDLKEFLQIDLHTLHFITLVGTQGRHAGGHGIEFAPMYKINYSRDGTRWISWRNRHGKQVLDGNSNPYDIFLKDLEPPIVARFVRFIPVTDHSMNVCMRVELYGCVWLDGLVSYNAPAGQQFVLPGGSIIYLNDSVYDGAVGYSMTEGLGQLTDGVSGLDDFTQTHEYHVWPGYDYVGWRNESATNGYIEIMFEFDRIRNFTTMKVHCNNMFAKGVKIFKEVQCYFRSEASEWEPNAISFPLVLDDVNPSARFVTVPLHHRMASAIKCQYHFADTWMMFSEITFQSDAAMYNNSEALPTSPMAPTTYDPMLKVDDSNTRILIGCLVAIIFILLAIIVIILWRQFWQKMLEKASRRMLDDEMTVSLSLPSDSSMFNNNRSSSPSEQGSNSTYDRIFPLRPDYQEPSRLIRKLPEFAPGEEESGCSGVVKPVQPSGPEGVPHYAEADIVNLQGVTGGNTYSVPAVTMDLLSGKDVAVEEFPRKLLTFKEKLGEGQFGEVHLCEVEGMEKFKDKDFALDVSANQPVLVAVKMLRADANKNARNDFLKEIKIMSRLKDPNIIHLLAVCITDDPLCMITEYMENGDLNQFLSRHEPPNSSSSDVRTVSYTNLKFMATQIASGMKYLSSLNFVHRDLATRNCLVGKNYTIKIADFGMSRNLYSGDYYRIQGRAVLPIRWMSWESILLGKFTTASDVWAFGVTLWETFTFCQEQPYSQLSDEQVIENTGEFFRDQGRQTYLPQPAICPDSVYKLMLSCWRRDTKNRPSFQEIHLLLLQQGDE
UniProt P22607, whole entry, looked up: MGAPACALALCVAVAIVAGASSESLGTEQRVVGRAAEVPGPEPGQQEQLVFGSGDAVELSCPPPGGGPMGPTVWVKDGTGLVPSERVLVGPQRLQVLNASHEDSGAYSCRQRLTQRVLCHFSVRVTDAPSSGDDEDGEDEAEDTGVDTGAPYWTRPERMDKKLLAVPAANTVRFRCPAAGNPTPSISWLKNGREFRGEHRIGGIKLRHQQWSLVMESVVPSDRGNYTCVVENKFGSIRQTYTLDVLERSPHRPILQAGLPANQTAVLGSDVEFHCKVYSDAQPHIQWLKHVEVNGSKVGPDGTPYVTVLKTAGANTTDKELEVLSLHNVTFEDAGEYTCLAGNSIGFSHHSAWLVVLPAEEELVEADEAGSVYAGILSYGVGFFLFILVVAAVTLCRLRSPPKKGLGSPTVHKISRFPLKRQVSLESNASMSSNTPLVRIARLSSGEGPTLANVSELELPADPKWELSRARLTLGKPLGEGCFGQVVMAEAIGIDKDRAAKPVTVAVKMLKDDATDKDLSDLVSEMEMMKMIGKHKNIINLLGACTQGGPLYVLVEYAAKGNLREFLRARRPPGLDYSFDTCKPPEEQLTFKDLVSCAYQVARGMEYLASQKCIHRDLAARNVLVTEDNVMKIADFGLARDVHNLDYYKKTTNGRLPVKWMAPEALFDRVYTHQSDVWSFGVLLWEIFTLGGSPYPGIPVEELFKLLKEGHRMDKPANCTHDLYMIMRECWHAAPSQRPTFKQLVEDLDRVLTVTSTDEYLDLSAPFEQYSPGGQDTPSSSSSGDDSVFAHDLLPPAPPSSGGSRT
UniProt P04150, whole entry: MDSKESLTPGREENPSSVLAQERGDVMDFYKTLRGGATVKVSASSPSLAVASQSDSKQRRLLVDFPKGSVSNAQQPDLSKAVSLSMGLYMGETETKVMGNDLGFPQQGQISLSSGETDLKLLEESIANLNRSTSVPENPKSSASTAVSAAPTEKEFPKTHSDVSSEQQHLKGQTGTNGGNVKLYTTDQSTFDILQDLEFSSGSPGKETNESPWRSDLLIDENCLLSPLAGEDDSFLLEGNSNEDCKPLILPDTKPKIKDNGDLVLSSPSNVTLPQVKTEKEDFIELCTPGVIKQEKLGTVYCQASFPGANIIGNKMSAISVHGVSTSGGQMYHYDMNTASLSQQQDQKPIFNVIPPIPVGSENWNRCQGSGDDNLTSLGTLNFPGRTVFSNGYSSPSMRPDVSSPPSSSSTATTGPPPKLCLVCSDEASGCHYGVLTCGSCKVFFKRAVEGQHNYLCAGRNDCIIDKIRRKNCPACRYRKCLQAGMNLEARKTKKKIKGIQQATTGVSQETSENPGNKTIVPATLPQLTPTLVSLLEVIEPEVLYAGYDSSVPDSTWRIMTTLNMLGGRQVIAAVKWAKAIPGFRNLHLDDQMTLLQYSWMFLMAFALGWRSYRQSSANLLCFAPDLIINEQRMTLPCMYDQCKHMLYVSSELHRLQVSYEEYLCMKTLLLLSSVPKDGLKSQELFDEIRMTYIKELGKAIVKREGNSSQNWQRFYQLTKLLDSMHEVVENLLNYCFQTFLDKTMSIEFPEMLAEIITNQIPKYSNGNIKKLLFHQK
UniProt O14757, whole entry: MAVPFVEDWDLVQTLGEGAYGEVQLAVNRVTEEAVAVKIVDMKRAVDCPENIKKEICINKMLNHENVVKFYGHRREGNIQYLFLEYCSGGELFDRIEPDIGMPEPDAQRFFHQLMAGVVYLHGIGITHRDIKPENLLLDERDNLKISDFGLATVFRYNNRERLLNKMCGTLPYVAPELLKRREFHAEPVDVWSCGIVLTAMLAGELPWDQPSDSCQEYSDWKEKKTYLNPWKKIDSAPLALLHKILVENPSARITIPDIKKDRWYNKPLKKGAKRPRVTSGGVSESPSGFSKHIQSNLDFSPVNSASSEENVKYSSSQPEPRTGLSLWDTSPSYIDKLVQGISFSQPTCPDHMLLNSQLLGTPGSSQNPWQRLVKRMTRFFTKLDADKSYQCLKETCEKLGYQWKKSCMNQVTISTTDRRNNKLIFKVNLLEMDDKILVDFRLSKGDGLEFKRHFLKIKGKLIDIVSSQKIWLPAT
UniProt P26045, whole entry: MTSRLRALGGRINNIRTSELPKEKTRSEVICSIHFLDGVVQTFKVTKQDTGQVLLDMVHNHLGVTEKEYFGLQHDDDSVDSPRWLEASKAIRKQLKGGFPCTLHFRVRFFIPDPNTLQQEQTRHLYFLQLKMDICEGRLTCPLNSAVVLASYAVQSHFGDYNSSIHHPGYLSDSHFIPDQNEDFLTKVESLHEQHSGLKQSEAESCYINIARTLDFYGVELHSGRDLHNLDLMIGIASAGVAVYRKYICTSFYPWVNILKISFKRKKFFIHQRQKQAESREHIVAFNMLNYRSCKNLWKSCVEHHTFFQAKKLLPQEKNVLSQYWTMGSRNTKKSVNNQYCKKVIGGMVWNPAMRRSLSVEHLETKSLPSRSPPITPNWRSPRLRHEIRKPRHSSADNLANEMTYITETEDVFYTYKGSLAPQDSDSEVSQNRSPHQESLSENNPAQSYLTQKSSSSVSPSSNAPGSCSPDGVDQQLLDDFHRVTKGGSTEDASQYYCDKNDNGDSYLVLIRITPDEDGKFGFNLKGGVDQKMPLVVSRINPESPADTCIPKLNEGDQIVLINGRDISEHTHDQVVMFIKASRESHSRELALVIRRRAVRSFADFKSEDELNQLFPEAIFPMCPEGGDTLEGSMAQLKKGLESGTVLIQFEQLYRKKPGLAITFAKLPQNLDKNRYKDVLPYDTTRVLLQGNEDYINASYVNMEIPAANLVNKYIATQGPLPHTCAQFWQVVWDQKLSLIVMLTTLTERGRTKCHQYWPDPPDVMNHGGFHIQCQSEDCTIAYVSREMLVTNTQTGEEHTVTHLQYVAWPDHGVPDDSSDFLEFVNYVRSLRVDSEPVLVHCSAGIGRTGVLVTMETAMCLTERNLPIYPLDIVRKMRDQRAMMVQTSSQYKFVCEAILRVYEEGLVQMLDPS

Study 1
Compound: CCN1CCN(Cc2ccc(NC(=O)c3ccc(C)c(/C=C/c4cnc5[nH]ccc5c4OC)c3)cc2C(F)(F)F)CC1
Mode: inhibitor
Technique: cell-based kinome screen
Tested at: 5 µM
target | sample | baseline | log2 fold change
DDR1 (Homo sapiens, UniProt Q08345) |  | vehicle | -0.693 log2
BMX (Homo sapiens, UniProt P51813) |  | vehicle control | -0.207
Discoidin domain-containing receptor 2, with CDC37 (DDR2, Homo sapiens, UniProt Q16832) |  | vehicle | 0.078 log2
FGFR3 (Homo sapiens, UniProt P22607) | human cells | vehicle | 0.392

Single results of other studies
NR3C1: Glucocorticoid receptor (NR3C1, Homo sapiens, UniProt P04150)
Structure (SMILES) | target | effect on | mode | technique | tested at | endpoint | result
C[C@H](NCCN(C)C)[C@@H]1CC[C@@H]2[C@H]3CCc4cc(O)ccc4[C@H]3CC[C@]21C | NR3C1 | nuclear translocation | agonist | enzyme fragment complementation |  | pEC50 | < 5.05
CC#C/C(=N\OC[C@H]1COCCN1)c1ccc2ncnc(Nc3ccc(OCc4cccc(F)c4)c(Cl)c3)c2c1 | CHEK1 (Homo sapiens, UniProt O14757) | kinase activity |  |  | 10 µM | inhibition | 30.1%
CC[C@H]1CC[C@H]2[C@@H]3CC=C4C[C@H](OC(C)=O)[C@@H](N)C[C@@]4(C)[C@H]3CC[C@@]12C | NR3C1 | nuclear translocation | agonist | enzyme fragment complementation |  | pEC50 | < 5.05
COc1cc(CC(=O)NCC(NC(=O)C(CCCNC(=O)c2cccc(I)c2)NC(=O)C(Cc2ccc(C(F)(F)P(=O)(O)O)cc2)NC(=O)c2ccc(C)c(Br)c2)C(N)=O)ccc1O (centres unmarked) | PTPN3 (Homo sapiens, UniProt P26045) | enzyme activity |  |  | 10 µM | inhibition | no inhibition

A few entries again (single results of other studies):
Structure (SMILES) | target | effect on | mode | technique | tested at | endpoint | result
COc1cc(CC(=O)NCC(NC(=O)C(CCCNC(=O)c2cccc(I)c2)NC(=O)C(Cc2ccc(C(F)(F)P(=O)(O)O)cc2)NC(=O)c2ccc(C)c(Br)c2)C(N)=O)ccc1O (centres unmarked) | PTPN3 (Homo sapiens, UniProt P26045) | enzyme activity |  |  | 10 µM | inhibition | no inhibition
